Published values pooled from the literature.
Every numbered part comes from another study and shows a few of its results, in no order. Positions count from the first letter of the parent shown.

Block 1
Target: ABI1, truncated, D143A, DHFR fusion (Arabidopsis thaliana, UniProt P49597)
Method: DHFR PCA, dose-response
Medium: yeast
Notes: Hill fit, mean, not affinity
With: (+)-ABA, dose series
Direction: lower = more sensitive
Starting sequence: PYL1, truncated, DHFR fusion (Arabidopsis thaliana, UniProt Q8VZS8); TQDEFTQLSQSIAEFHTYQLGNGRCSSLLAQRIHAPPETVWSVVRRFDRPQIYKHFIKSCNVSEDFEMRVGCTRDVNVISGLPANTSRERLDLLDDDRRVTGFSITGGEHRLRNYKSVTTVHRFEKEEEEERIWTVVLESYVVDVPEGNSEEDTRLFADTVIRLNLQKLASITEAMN
Variant | ABA EC50
I33M | 7.49 µM
L138V | 16.4 µM
F5Y | 8.24 µM
G21L | 4.33 µM
A35Q | 90.8 µM
Y141W | 90.1 µM
G107M | 113 µM
E151R | 4.05 µM
W134V | 2.1 µM
R99V | 698 µM
D65A | 4.13 µM
E38K | 21.6 µM
E38S | 3.46 µM
D65R | 4.64 µM
F124L | 1.37 µM
E109Y | 42.5 µM

Block 2
Target: Sal-like protein 4, full length isoform B (SALL4, Homo sapiens, UniProt Q9UJQ4-2, residues 1-616)
Method: universal PBM
Molecule type: double-stranded DNA, one strand shown
Medium: in vitro
Tested at: not given
Notes: 8-mer, flanks averaged, mean of replicates
Direction: higher = stronger binding
Residues (chain): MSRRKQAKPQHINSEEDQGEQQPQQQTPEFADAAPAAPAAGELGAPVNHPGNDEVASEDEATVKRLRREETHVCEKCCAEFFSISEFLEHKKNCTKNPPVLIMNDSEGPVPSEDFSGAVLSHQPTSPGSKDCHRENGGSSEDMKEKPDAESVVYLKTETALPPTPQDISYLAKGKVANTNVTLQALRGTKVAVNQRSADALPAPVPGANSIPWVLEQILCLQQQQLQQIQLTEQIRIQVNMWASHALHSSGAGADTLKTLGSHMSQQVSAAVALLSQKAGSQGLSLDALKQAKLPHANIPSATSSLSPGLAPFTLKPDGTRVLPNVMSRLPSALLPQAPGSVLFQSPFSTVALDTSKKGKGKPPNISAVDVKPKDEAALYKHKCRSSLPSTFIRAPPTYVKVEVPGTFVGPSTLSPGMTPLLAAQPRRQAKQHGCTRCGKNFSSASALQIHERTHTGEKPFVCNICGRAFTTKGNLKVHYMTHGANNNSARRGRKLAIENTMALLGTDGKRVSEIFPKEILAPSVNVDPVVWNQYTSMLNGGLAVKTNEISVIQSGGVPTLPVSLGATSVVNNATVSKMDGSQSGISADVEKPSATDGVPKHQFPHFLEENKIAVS
Strand | E-score
GAGGTGGC | -0.137
CTATAGAC | 0.0949
AGTGAACC | -0.171
AACAATTG | 0.206
CAGAGAAA | 0.0556
GAAATCAC | 0.163
AACCGGGG | -0.42
CGGGGGTC | -0.374
CACTAGTC | -0.156
CGCACCCG | -0.319
CCCTAAAG | -0.0499
CTACGCAG | -0.125
CTGCACTC | -0.25
TGGTCCAA | -0.122
GGAAGAGA | 0.0385
AGGTCTAC | -0.103
CGAGGCGA | -0.167
AATCCCCA | -0.168
AGCAGGGG | -0.0867
CGGGGGGC | -0.272
CCACATTC | -0.0433
AACGCACT | 0.0351
AATCTGGT | -0.00893
CAAAACCA | 0.168
GCAATGCA | -0.0906

Block 3
Target: RNA binding protein fox-1 homolog 2, RRM domain, GST-SBP tag (RBFOX2, Homo sapiens, UniProt O43251-10, residues 100-194)
Method: RNA Bind-n-Seq
Molecule type: RNA
Medium: in vitro
Tested at: 365 nM
Notes: natural RNA segment, single round, ends assumed
Baseline: no-protein control
Direction: higher = stronger binding
All sequences stand within: GGGAGUUCUACAGUCCGACGAUC … UGGAAUUCUCGGGUGCCAA
Residues (chain): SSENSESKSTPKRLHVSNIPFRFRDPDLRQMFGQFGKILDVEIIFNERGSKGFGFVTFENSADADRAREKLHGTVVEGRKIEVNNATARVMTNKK
Strand | RBNS enrichment (R)
GACAAGCAGUUUAAGUUAUUUAUUUGUUAAUGCUGGCUGUGGAAACCCCAGUUCUAGGGGGCAGAAACAGGACAUUUACAUCUAGUAGGGGCUGCAAGAGCAAAGAGGAA | 0.447
AAAAUGAAAGCCAAAUUUAUAUGCCACCGAUUGCAGGACACAAGCACAGUUUUAAGAGUUGUAUGAACAUGGAGAGGACUUUUGGUUUUUAUAUUUCUCGUAUUUAAUAU | 0.732
UUCCCUUUUCCCUCUGUGGCAGUUACGAUUUUGACUUCAGUCCUGAGAAAAACUUCAGGUUUUGAAAAUCAGAUGAUGUCUUCUCCUUUUCCAAACACCACACGUUGAAA | 0.359
ACCCCAAACCUGUUUUGUACUUAGAGACUGGCUUUGGUCAGUAGUUCACUGUGGAGACAAUGACAGUAUUCUCUGUGCCAGUGUCGCUGAUGGAGCUCCCCCUCCCCACA | 0.51
AUUCCUGAGAAAUGUCCAACUGCUAGGAGUCUGACCAAAUUACAGAUGUGUGCCAUACUCUGGUUCUUAGAGUUCCAGAGCUCCUUCAUUGGUUUUAAUAAACUCUAAGG | 0.505
UUUUAUUCCUAUUUAAUGUUAUUGACUAUAGCGGAUCUUUGAAAUCAGUGUUUUCCGUGUGAAUUUCCAACCUUGCACCCCGUUCCUUGUCCUUACUCUUGACUCCAUCC | 0.69
CCUAAGCAAAGAAAAUACGGCUUCUCUUGCAUUAUUUUCCCUUUUGGUUGGUUUGUUUUCUAGAAGUACGUUCAGAUGCUUUGGGGAAUGCAAUGUAUGAUUUGCUAGCU | 0.322
CUCCUCUCUUCCCCCAUGGUAGGAACAUAGCGUGUUUAUAUUUUAUGGCCAAACUAUUUUGAAUUUUGUUGUCUGGCCCUCAGUGCCCUGCCCUCUCCCUUUGCAGGACC | 1.66
AACAUGCCUUCAGUAUACUAACACUCAUAUGCUCAGUUUUGUUUUGUUUUGGCAGUUGACAAGAAGUUAAUUUGCUUUAGUAAAAAUCCCUCAUUCCAGCCUUUCUAUAU | 0.632
UGUAAAGUUAUUCUUGAAGUCAGAUUGAGGCUGGGAGACAGCCGUAGUAGAUGUUCUACUUUGUUCUGCUGUUCUCUAGAAAGAAUAUUUGGUUUUCCUGUAUAGGAAUG | 0.317
AAUCCUAUUGACAAUGUGAGCUCCUCUGAGUGUCUGUGAAAUACUUCCAGUGUUCCUCAUCAUGUUUCCAGCAAGUCCCUUUUUCUACGUUGCAGUUUGUUUAAUGUAUG | 0.813
AUUUGGGAGGUAGAGGCAGUCAGAUCUCUGUGAGUUCAAGGCCAGCCUGGUCUACAGAGUAAGUUCUAGGACCAAACCCAAAAAAUAAAGCAAAAACAAAAGGAGGUAUU | 0.543

Block 4
Target: CREB3L3, bZIP domain (human)
Method: DHFR protein complementation
Medium: yeast
Notes: single substitutions, most at no-binding floor
Baseline: wild-type JUN-FOS pair
Direction: higher = stronger binding
Starting sequence: JUN, bZIP domain (human); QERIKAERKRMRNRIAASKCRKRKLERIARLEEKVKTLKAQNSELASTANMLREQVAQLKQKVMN; partner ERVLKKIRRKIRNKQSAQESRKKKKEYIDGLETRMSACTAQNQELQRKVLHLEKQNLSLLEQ
Variant | binding fitness
Q55R | -1.44 natural log
E32N | -1.53 natural log
M51T | -1.27 natural log
E54P | -1.52 natural log
V56S | -1.5 natural log
L52D | -1.56 natural log
E44T | -1.47 natural log
I28S | -1.43 natural log
A46T | -1.37 natural log
Q41L | -1.21 natural log
V56L | -1.45 natural log
A46N | -1.45 natural log
A49H | -1.56 natural log
E33N | -1.46 natural log
A40K | -1.39 natural log
R53G | -1.52 natural log
T48F | -1.37 natural log
E32C | -1.45 natural log
T48L | -1.39 natural log
K36W | -1.44 natural log
T37D | -1.41 natural log
L38R | -1.49 natural log
S43R | -1.43 natural log
S43I | -1.25 natural log
V56F | -1.54 natural log

Block 5
Target: Ras GTPase-activating protein-binding protein 1, full length (G3BP1, Homo sapiens, UniProt Q13283)
Chain of UniProt Q13283 (whole entry, looked up): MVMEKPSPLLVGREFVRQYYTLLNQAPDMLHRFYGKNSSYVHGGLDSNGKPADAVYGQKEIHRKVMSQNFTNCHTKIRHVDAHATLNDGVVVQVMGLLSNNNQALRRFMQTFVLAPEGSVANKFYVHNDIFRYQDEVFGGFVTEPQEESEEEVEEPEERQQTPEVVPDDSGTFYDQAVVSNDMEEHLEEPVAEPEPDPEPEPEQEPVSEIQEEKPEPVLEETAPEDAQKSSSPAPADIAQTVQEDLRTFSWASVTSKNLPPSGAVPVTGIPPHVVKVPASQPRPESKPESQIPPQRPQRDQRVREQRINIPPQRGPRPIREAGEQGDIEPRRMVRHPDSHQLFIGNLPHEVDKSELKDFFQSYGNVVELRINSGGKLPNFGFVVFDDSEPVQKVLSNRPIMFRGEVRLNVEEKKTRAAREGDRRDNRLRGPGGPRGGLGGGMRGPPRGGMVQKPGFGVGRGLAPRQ
Method: RNA Bind-n-Seq
Molecule type: RNA
Medium: in vitro
Tested at: 200 nM
Notes: whole 134-nt RNA, ends assumed
With: 150 mM KCl
Baseline: input library
Direction: higher = stronger binding
All sequences stand within: GGGAGUUCUACAGUCCGACGAUC … UGGAAUUCUCGGGUGUCAAGG
Strand | log2 enrichment
AGUCCUGUGCUACACAUCGUAUGUACCGAAUCGGGGAGGGGAAAAAAAGGGGUGGGGAAAGUAUUAUGUUACGCCGUUCGGAUCUGCACU | 0.72
UUGCUAACUUCAAGAUAGAGCCUCCUGGACUUUUCCGUGGCCGCGGCAACCACCCCAAGAUGGGCAUGCUGAAGAGACGAAUCAUGCCCG | -0.609
UUCAUUCCUUGGAAGAAGCUGUACCAUCGAUACCUGAUGAAUGAAGAGCAAGCUGUCAGCAAAGUGGACGGCAUCCUGUCUAACUGUGGC | -2.18
GGCACCCUUUGAAGGGGAGGAUGAAGAUGAACUCUUCCAAUCCAUCAUGGAACACAACGUAGCCUAUCCCAAGUCUAUGUCCAAGGAAGC | 0.203
CAAGUCCUGUGCUACACAUCGUAUGUACCGAAUCGGCCCCGGGGCCCCGGCCCCGGAAAGUAUUAUGUUACGCCGUUCGGAUCUGCACUU | -1.05
GUAGGAAGUAAAAACAAAUGGAAAUGCUUCGGAUAGUGGCAGGGGUGGGGGUUGCUAAGGAAAGGGUGGGAUGGGAGUGGGUAAAGAGUU | 1.18
UCCGCACACCCGGCCUGUCACCCUGCUUUCCCUGCCUCUACUUGACUUGGAAUUGGCUGAAGACUACACAGGAAUGCAUCGUUCCCACUC | 1.25
GUUGUAGACACUCCUGGGAUCCUGGACCACCCUCUGGAGGAUAGGAACACCAUCGAGAUGCAGGCCAUCACUGCCCUGGCCCACCUCCGU | 0.87
UGGCCCUGGUGGCAUGCGGGGAGGAAGAGGUGGCCUCAUGGAUCGUGGUGGUCCCGGUGGAAUGUUCAGUGGUGGCCGUGGUGGAGACAG | 0.297
UCAAGUCCUGUGCUACACAUCGUAUGUACCGAAUCGGAAAAAGGAAAAAGGUGGAAAGUAUUAUGUUACGCCGUUCGGAUCUGCACUUCC | -0.869
UGGGAGGUGGAUUUUGUUUAUUUUUUUGGCUCAUUUCCAGGGGUGGGAAUUUUUUUUUAAUAUGUGUCAUGAAUAAAGUUGUUUUUGAAA | 0.0351
UCCUGUGCUACACAUCGUAUGUACCGAAUCGGGCCCCCCGGCCCCCCGGGGCCCCCCGGAAAGUAUUAUGUUACGCCGUUCGGAUCUGCA | 0.0641
UCAAGUCCUGUGCUACACAUCGUAUGUACCGAAUCGGGUUGGGGUUGGGGUUGGAAAGUAUUAUGUUACGCCGUUCGGAUCUGCACUUCC | 0.251
AAGUCCUGUGCUACACAUCGUAUGUACCGAAUCGGAAAAAGGUUUUUGGAAAAAGGAAAGUAUUAUGUUACGCCGUUCGGAUCUGCACUU | -1.75

Block 6
Target: CCNA1, cyclin fold, Cln2 fusion (human)
Method: yeast growth competition, sequencing
Medium: yeast
Notes: weak parent motif
Baseline: not given
Direction: higher = stronger binding
Starting sequence: E2F1 docking peptide (human); PPVKRRLDLETDH
Variant | normalised enrichment score
PPVKRRLMLETDH [D8M] | 0.432
PPVKHRLDLETDH [R5H] | 0.341
PPVKRELDLETDH [R6E] | 0.414
PPVKRRLDLRTDH [E10R] | 0.273
PPVKRLLDLETDH [R6L] | 0.176
PPVKRRLDLLTDH [E10L] | 0.508
PPVKRPLDLETDH [R6P] | 0.13
PPVKRRLDLETIH [D12I] | 0.335
PPVTRRLDLETDH [K4T] | -0.0727
PPVKRRLDLETDP [H13P] | 0.816
PPVKCRLDLETDH [R5C] | 0.535
PPVKRRLHLETDH [D8H] | 0.195
PTVKRRLDLETDH [P2T] | 0.412
PPVKRRLDLERDH [T11R] | 0.383
PPKKRRLDLETDH [V3K] | 0.19
PQVKRRLDLETDH [P2Q] | 0.736
PPVLRRLDLETDH [K4L] | 0.236
PPVKRRHDLETDH [L7H] | 0.226

Some of these lines once more (block 1):
Variant | ABA EC50
L138V | 16.4 µM
E151R | 4.05 µM
F124L | 1.37 µM
E38S | 3.46 µM
A35Q | 90.8 µM
E109Y | 42.5 µM
F5Y | 8.24 µM
W134V | 2.1 µM
R99V | 698 µM
